Assay results collected from several papers.
Lines come from different studies, so protocols differ. ± marks the error that the study gave.
BCHE: Cholinesterase (BCHE, Equus caballus, UniProt P81908)
Sequence of UniProt P81908 (whole entry, looked up): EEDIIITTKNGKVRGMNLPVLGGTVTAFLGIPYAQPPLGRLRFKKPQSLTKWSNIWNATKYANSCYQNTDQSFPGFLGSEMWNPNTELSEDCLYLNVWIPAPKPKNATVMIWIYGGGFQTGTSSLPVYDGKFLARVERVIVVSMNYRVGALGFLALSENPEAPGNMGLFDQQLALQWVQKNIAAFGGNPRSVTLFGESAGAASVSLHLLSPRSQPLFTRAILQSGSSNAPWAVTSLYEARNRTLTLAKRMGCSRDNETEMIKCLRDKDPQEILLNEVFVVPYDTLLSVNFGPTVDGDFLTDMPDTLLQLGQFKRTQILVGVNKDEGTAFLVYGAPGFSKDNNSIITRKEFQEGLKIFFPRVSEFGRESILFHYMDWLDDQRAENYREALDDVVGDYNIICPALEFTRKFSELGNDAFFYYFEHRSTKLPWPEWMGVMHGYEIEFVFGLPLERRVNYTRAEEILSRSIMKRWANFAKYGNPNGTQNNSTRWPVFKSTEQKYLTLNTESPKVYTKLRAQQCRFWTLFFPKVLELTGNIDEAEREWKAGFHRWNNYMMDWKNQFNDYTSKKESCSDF
Mitogen-activated protein kinase 14: Mitogen-activated protein kinase 14 (Rattus norvegicus, UniProt P70618)
Sequence of UniProt P70618 (whole entry, looked up): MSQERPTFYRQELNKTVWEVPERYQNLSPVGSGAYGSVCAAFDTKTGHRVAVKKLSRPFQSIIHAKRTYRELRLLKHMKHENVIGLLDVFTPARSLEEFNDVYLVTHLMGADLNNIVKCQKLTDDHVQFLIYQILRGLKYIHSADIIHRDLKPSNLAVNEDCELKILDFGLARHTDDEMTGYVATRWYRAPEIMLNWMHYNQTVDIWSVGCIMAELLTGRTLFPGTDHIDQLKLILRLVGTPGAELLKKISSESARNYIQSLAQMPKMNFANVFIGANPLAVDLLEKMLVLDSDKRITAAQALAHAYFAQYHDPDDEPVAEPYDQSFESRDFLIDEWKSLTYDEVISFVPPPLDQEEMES
CTSL: Procathepsin L (CTSL, Homo sapiens, UniProt P07711)
Sequence of UniProt P07711 (whole entry, looked up): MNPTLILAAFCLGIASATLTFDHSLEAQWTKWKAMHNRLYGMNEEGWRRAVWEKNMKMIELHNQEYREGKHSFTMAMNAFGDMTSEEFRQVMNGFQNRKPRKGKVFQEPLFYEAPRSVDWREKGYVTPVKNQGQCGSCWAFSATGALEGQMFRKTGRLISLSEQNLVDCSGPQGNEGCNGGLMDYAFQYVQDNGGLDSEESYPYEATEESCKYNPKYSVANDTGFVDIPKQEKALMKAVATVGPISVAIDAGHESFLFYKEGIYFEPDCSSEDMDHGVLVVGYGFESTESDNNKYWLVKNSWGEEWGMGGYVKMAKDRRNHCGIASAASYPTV
Sequence of UniProt Q07440 (whole entry, unmodified, looked up): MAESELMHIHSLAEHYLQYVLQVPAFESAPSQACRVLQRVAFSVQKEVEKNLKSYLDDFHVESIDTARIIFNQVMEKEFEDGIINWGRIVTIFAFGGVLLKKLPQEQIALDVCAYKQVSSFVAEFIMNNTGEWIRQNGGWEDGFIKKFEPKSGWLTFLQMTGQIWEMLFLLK
Sequence of UniProt P00519 (whole entry, looked up): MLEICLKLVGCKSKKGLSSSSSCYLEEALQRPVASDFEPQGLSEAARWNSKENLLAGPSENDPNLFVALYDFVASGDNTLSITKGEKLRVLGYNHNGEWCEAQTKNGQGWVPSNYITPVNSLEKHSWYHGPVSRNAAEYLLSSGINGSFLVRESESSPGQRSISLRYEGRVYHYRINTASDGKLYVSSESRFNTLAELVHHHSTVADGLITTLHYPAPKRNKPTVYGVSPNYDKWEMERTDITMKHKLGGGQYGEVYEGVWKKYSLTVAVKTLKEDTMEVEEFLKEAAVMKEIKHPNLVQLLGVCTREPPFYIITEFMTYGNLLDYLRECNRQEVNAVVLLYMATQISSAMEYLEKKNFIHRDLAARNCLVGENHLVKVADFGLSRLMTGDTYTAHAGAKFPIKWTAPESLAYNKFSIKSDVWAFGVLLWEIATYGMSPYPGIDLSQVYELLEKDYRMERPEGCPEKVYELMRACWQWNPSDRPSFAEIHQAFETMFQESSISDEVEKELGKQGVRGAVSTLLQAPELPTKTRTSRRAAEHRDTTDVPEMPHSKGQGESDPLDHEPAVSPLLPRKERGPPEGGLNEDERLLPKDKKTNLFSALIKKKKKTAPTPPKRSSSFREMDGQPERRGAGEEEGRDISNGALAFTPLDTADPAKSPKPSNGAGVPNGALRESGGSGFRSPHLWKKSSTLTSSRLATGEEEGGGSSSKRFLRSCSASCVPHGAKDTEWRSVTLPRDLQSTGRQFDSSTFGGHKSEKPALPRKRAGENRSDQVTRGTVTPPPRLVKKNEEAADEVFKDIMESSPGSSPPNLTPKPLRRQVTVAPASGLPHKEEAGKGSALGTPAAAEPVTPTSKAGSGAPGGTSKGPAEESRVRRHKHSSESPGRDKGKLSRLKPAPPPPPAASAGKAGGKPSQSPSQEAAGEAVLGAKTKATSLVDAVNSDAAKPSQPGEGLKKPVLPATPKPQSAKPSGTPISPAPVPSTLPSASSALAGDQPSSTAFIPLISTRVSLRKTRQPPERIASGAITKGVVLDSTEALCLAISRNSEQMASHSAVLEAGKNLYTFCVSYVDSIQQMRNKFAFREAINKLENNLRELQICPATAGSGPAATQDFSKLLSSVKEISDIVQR
Sequence of UniProt P25084 (whole entry, looked up): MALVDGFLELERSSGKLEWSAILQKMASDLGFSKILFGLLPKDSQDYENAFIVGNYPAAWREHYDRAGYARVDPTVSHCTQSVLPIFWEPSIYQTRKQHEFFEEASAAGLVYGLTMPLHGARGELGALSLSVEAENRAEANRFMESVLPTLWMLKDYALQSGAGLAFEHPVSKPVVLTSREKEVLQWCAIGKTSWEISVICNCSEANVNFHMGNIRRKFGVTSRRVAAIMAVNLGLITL
Sequence of UniProt P30411 (whole entry, looked up): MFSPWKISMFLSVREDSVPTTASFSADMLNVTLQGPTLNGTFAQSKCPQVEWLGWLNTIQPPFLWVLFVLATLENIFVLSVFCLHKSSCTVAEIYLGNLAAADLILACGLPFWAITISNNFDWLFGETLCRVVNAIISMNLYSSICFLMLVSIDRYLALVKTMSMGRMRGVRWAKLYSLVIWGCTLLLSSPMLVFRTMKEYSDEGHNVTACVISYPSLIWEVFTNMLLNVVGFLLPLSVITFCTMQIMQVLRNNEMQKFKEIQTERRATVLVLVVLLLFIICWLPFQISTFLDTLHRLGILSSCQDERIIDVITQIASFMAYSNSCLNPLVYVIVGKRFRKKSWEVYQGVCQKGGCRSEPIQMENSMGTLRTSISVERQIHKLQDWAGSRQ
Sequence of UniProt Q99436 (whole entry, looked up): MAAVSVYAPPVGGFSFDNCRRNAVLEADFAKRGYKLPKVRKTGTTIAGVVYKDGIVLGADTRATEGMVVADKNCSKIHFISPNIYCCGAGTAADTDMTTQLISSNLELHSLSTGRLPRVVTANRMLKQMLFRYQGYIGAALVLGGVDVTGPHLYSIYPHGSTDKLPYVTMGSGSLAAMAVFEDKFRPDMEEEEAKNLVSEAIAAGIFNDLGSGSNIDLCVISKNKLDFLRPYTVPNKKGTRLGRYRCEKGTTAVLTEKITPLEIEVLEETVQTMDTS
Sequence of UniProt Q9H0J9 (whole entry, looked up): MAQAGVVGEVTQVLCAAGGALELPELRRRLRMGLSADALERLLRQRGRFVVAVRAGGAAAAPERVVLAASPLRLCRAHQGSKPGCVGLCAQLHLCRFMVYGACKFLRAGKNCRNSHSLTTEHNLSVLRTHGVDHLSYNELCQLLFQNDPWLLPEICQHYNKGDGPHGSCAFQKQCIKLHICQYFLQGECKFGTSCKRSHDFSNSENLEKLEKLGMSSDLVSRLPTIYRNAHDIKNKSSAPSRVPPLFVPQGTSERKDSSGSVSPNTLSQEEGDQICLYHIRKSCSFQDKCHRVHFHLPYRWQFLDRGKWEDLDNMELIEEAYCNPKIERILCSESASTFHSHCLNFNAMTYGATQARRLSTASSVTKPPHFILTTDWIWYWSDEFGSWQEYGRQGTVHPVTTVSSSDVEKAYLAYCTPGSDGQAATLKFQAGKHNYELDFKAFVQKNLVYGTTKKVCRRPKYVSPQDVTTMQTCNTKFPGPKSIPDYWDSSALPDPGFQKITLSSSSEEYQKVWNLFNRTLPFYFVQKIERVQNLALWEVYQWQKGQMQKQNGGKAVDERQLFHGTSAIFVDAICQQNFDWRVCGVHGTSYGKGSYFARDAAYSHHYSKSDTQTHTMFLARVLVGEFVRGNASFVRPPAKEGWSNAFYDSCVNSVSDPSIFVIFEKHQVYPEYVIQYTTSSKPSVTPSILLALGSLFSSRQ

Nc1ccn(C2OC(COP(=O)(O)OP(=O)(O)OP(=O)(O)O)C(O)C2(F)F)c(=O)n1 (stereo not drawn)
IC50 (pyrG (Escherichia coli, UniProt P0A7E5); enzyme activity; with: 6.0 mM glutamine, 1.0 mM ATP, 0.05 mM UTP): 3.8 µM

Cc1ccc(-c2csc(NN=C(C=Cc3c(Cl)cccc3Cl)C(=O)O)n2)cc1
IC50 (BCHE; enzyme activity, inhibitor): 6.14 µM

COc1ccccc1-c1n[nH]c2nc(NC3CCN(C(=O)Cc4ccc(F)cc4F)CC3)ncc12
relative abundance (bead binding, competition bead pull-down, measured: LMJF.21.1860; Leishmania donovani extract; 10 µM; reference: vehicle): 1.11

CC(C)[C@H]1NC(=O)C[C@H]2/C=C/CCSSC[C@@H](NC1=O)C(=O)N[C@H](Cc1cccc3ccccc13)C(=O)NCC(=O)O2
inhibition (Serine/threonine-protein kinase MRCK alpha (CDC42BPA, Homo sapiens, UniProt Q5VT25); enzyme activity, inhibitor; 10 µM): -3.5%

CS(C)(=O)=Nc1ccc(-c2ccc(-c3nc4cc(O[C@@H]5CO[C@H]6[C@@H]5OC[C@H]6O)[nH]c4cc3F)cc2)cc1
inhibition (Serine/threonine-protein kinase PAK 1 (PAK1, Homo sapiens, UniProt Q13153); enzyme activity, inhibitor; 10 µM): 17%

CC(C)C[C@H](NC(=O)[C@H](CCCNC(=N)N)NC(=O)[C@@H]1CCCN1C(=O)[C@H](CCCCN)NC(=O)[C@H](CCCNC(=N)N)NC(=O)[C@H](Cc1c[nH]cn1)NC(=O)[C@H](CCCNC(=N)N)NC(=O)[C@H](Cc1ccccc1)NC(=O)[C@H](CCCCN)NC(=O)[C@H](CCCCN)NC(=O)[C@H](C)NC(=O)[C@@H](N)Cc1ccc(O)cc1)C(=O)N[C@@H](CO)C(=O)N[C@@H](CC(C)C)C(=O)N1CCC[C@H]1C(=O)NCC(=O)O
IC50 (Mitogen-activated protein kinase 14; enzyme activity, inhibitor, fluorescence; pH 7.4): 4.85 µM

O=C(NC1CCN(c2ncnc3[nH]cnc23)CC1)c1cccc(NS(=O)(=O)c2ccc(C(F)(F)F)cc2)c1
IC50 (DNA (cytosine-5)-methyltransferase 1 (DNMT1, Homo sapiens, UniProt P26358); enzyme activity, inhibitor): > 100 µM

COC(=O)CNC(=O)[C@H](CC(C)C)NC(=O)[C@@H](Cc1ccc(O)cc1OC)NC(=O)[C@H](CO)NC(=O)[C@@H](NC(=O)[C@H](CC(C)C)NC(=O)[C@@H](Cc1ccc(O)cc1)NC(=O)[C@H](Cc1ccc(O)cc1)NC(=O)NC(=O)O)[C@@H](O)C(=O)O
IC50 (Tyrosine-protein phosphatase non-receptor type 11 (PTPN11, Homo sapiens, UniProt Q06124, E76K); phosphatase activity, inhibitor, fluorescence; 0.5 nM enzyme, with: DiFMUP 100 µM): 45.6 µM

O=C(O)CCn1c(=O)oc2cc(Cl)c(Cl)cc21
IC50 (Substance-P receptor (TACR1, Homo sapiens, UniProt P25103); antagonist; median value): > 25.1 µM

CCCN(CCCC[C@H](NC(=O)[C@H](CCCN1CCOCC1)NC(=O)[C@@H](NC(=O)[C@H](Cc1ccccc1)NC(=O)c1ccc(C(C)(C)C)cc1)C1CCC1)C(=O)N[C@@H](CO)C(N)=O)C1CC2CCC1C2 (stereo partly drawn)
IC50 (Chromobox protein homolog 8 (Homo sapiens, UniProt Q9HC52); ligand displacement, TR-FRET): 0.43 µM

O=C1NC2(CC2)COc2ncc(F)cc2[C@H]2COCCN2c2ccn3ncc1c3n2
serum hepatic lipase activity (Sprague-Dawley rat, female, serum; oral, 5 mg/kg/day, end of treatment, 4-week subacute toxicity): 4 ± 0.8 U/L

O=C(c1cc(Cc2n[nH]c(=O)c3ccccc23)ccc1F)N1CC(CNC2CC2)C1
IC50 (Protein mono-ADP-ribosyltransferase PARP12 (PARP12, Homo sapiens, UniProt Q9H0J9); enzyme activity, inhibitor): > 10 µM

CSCc1cn(CC(=O)N2CCc3sccc3C2)nn1
IC50 (CTSL; enzyme activity, inhibitor, FRET): > 100 µM

CC[C@H](C)[C@H](NC(=O)[C@H](CCCCN)NC(=O)[C@H](CC(C)C)NC(=O)[C@@H]1CCCN1C(=O)[C@@H]1CCCN1C(=O)[C@@H](NC(=O)[C@H](CCCCN)NC(=O)[C@H](CCCNC(=N)N)NC(=O)[C@@H](NC(=O)[C@H](CCC(N)=O)NC(=O)[C@H](C)NC(=O)[C@@H](N)Cc1ccc(O)cc1)C(C)C)C(C)C)C(=O)N1CCC[C@H]1C(=O)N[C@H](C(=O)N[C@@H](CO)C(=O)N[C@@H](CCCNC(=N)N)C(=O)O)C(C)C
IC50 (Mitogen-activated protein kinase 14; enzyme activity, inhibitor, fluorescence; pH 7.4): 59.9 µM

CC(C)NCCN1C(=O)CSC1c1ccc(Cl)cc1Cl (stereo not drawn)
IC50 (uncharacterized protein (Apis mellifera, UniProt A0A7M6W5G5); enzyme activity, inhibitor, Ellman; with: 1 mM acetylthiocholine): 22 µM

CC(C)C[C@H](NC(=O)[C@H](CCCCN)NC(=O)[C@H](CO)NC(=O)[C@H](CCCNC(=N)N)NC(=O)[C@H](C)NC(=O)[C@@H](N)Cc1ccc(O)cc1)C(=O)N[C@@H](CCCNC(=N)N)C(=O)N[C@@H](CCCCN)C(=O)N1CCC[C@H]1C(=O)N[C@@H](CCCCN)C(=O)N1CCC[C@H]1C(=O)N[C@H](C(=O)N1CCC[C@H]1C(=O)N[C@@H](CC(C)C)C(=O)N[C@@H](CCCNC(=N)N)C(=O)N[C@@H](CCCCN)C(=O)O)C(C)C
IC50 (Mitogen-activated protein kinase 14; enzyme activity, inhibitor, fluorescence; pH 7.4): 20.3 µM

CN1CCCCC1C(=O)NC(Cc1ccc(-c2ccccc2)cc1)B(O)O (stereo not drawn)
IC50 (PSMB6/PSMB7 (Homo sapiens, UniProt P28072+Q99436); β1c caspase-like activity, inhibitor; constitutive proteasome, with: Z-LLE-AMC): > 10 µM

CC[C@H](C)[C@H](NC(=O)[C@H](CCCNC(=N)N)NC(=O)[C@H](CC(C)C)NC(=O)CNC(=O)[C@H](CCCCN)NC(=O)[C@H](CCCCN)NC(=O)[C@H](CCCNC(=N)N)NC(=O)[C@H](CCCCN)NC(=O)[C@H](CCCCN)NC(=O)[C@H](CCCCN)NC(=O)[C@H](C)NC(=O)[C@@H]1CCCN1C(=O)[C@H](C)NC(=O)[C@@H](N)Cc1ccc(O)cc1)C(=O)N[C@@H](CCCCN)C(=O)NCC(=O)O
IC50 (Mitogen-activated protein kinase 14; enzyme activity, inhibitor, fluorescence; pH 7.4): 1.25 µM

O=[N+]([O-])c1ccc2c(N=Nc3ccc4ccccc4c3O)c(O)cc(S(=O)(=O)O)c2c1
IC50 (Bcl-2-related protein A1 (Mus musculus, UniProt Q07440, C113S/P104K); ligand displacement, FP): 320 µM

O=S(=O)(N/N=C/c1ccc(OS(=O)(=O)c2cc(Cl)ccc2Cl)cc1)c1ccc(Cl)cc1
IC50 (Carbonic anhydrase 2 (CA2, Homo sapiens, UniProt P00918); enzyme activity, inhibitor, absorbance): 0.0425 µM

Cc1ccc(C)c(COn2nnc3ccc(S(=O)(=O)N(C)C)cc32)c1
IC50 (CTSL; enzyme activity, inhibitor, FRET): > 100 µM

C[C@@H]1COCCN1c1nc(NCc2cccnc2C(F)(F)F)c2cccnc2n1
IC50 (Voltage-gated inwardly rectifying potassium channel KCNH2 (KCNH2, Homo sapiens, UniProt Q12809); ion current, inhibitor): 31.8 µM

CCC(=O)c1ccc(OCC(O)CN2CCN(C(c3ccccc3)c3ccccc3)CC2)cc1 (stereo not drawn)
IC50 (Lanosterol 14-alpha demethylase (ERG11, Candida albicans, UniProt P10613); enzyme activity, inhibitor, mass spectrometry): 0.489 µM

COc1ccccc1NC(=S)NCCN(C)C
IC50 (uncharacterized protein (Anopheles gambiae, UniProt Q7QFG0); enzyme activity, inhibitor, Ellman; pH 7.4, 30 °C, with: 1 mM acetylthiocholine): 15 µM

CN(C)C(=O)c1cncc(-c2cnc3[nH]cc(-c4cc(OS(=O)(=O)F)ccc4C#N)c3c2)c1
IC50 (Tyrosine-protein kinase ABL1 (ABL1, Homo sapiens, UniProt P00519); kinase activity, inhibitor, HTRF; 1 h preincubation, with: ATP 20 µM): > 1 µM

CC[C@H](C)[C@H](NC(=O)[C@H](CCCCN)NC(=O)[C@H](CC(C)C)NC(=O)[C@@H]1CCCN1C(=O)[C@H](CCCNC(=N)N)NC(=O)[C@@H]1CCCN1C(=O)[C@H](CCCCN)NC(=O)[C@@H](NC(=O)[C@H](CCCCN)NC(=O)[C@H](CC(N)=O)NC(=O)[C@H](CCCCN)NC(=O)[C@@H](NC(=O)[C@H](C)NC(=O)[C@@H](N)Cc1ccc(O)cc1)[C@@H](C)O)C(C)C)C(=O)N[C@H](C(=O)N[C@@H](CCCNC(=N)N)C(=O)O)[C@@H](C)CC
IC50 (Mitogen-activated protein kinase 14; enzyme activity, inhibitor, fluorescence; pH 7.4): 13.8 µM

CNC(=O)C[C@H](Cc1ccc(F)cc1)NC(=O)[C@@H](Cc1ccc(Cl)cc1Cl)NC(=O)[C@H](N)Cc1ccccc1C#N
IC50 (Interstitial collagenase (MMP1, Homo sapiens, UniProt P03956); enzyme activity, inhibitor): > 10 µM

N=C(N)SCc1ccc(B(O)O)cc1
IC50 (Furin (FURIN, Homo sapiens, UniProt P09958); enzyme activity, inhibitor; with: pERTKR-AMC 5 µM): > 10 µM

CCC1c2ccsc2CCN1C(=O)c1cn(C2CCNCC2)nn1 (racemic)
IC50 (CTSL; enzyme activity, inhibitor, FRET): > 100 µM

O=c1[nH]c2ccccc2c(=O)o1
IC50 (Rhomboid protease AarA (Providencia stuartii, UniProt P46116); enzyme activity, inhibitor, fluorescence): 16.1 µM

CC[C@H](C)[C@H](NC(=O)[C@H](CCCNC(=N)N)NC(=O)[C@H](CCCNC(=N)N)NC(=O)[C@H](CC(C)C)NC(=O)[C@@H](N)Cc1ccccc1)C(=O)N[C@@H](CCCNC(=N)N)C(=O)N1CCC[C@H]1C(=O)N[C@@H](CCCCN)C(=O)N[C@@H](CC(C)C)C(=O)N[C@@H](CCCCN)C(=O)O
IC50 (B2 bradykinin receptor (BDKRB2, Homo sapiens, UniProt P30411); ligand displacement, radioligand; pH 6.8): 2.6 µM

CC(C)C[C@H](NC(=O)[C@H](C)NC(=O)[C@@H](N)Cc1ccc(O)cc1)C(=O)N[C@@H](CCC(N)=O)C(=O)N[C@@H](CCC(N)=O)C(=O)N[C@@H](CCCNC(=N)N)C(=O)N[C@@H](CCCNC(=N)N)C(=O)N[C@@H](CC(C)C)C(=O)N[C@@H](CCC(N)=O)C(=O)N[C@@H](Cc1c[nH]cn1)C(=O)N[C@@H](CCCNC(=N)N)C(=O)N[C@@H](CC(C)C)C(=O)N[C@@H](CCCNC(=N)N)C(=O)N[C@@H](CC(C)C)C(=O)N[C@@H](CCCNC(=N)N)C(=O)N[C@@H](C)C(=O)O
IC50 (Mitogen-activated protein kinase 14; enzyme activity, inhibitor, fluorescence; pH 7.4): 6.85 µM

COc1ccccc1C1SCC(=O)N1CCCN(C)C (stereo not drawn)
IC50 (uncharacterized protein (Apis mellifera, UniProt A0A7M6W5G5); enzyme activity, inhibitor, Ellman; with: 1 mM acetylthiocholine): 3.9 µM

O=C(O)C(/C=C/c1c(Cl)cccc1Cl)=N\Nc1nc(-c2ccc([N+](=O)[O-])cc2)cs1
IC50 (BCHE; enzyme activity, inhibitor): 7.56 µM

CCCCCCCCCCN(O)C(=O)CCCCC[C@@H]1NC(=O)[C@H]2CCCN2C(=O)[C@H](Cc2ccccc2)NC(=O)[C@H](Cc2ccccc2)NC1=O
IC50 (Histone deacetylase 1 (HDAC1, Homo sapiens, UniProt Q13547); enzyme activity, inhibitor, fluorescence): 0.013 µM

O=C(CCc1ccc(Br)cc1)N[C@H]1CCOC1=O
IC50 (Transcriptional activator protein LasR (lasR, Pseudomonas aeruginosa, UniProt P25084); reporter gene, antagonist; PAO-JP2; with: OdDHL 10 nM): 2.2 µM

Repeated from above:
N=C(N)SCc1ccc(B(O)O)cc1
IC50 (Furin (FURIN, Homo sapiens, UniProt P09958); enzyme activity, inhibitor; with: pERTKR-AMC 5 µM): > 10 µM

O=C(NC1CCN(c2ncnc3[nH]cnc23)CC1)c1cccc(NS(=O)(=O)c2ccc(C(F)(F)F)cc2)c1
IC50 (DNA (cytosine-5)-methyltransferase 1 (DNMT1, Homo sapiens, UniProt P26358); enzyme activity, inhibitor): > 100 µM

O=[N+]([O-])c1ccc2c(N=Nc3ccc4ccccc4c3O)c(O)cc(S(=O)(=O)O)c2c1
IC50 (Bcl-2-related protein A1 (Mus musculus, UniProt Q07440, C113S/P104K); ligand displacement, FP): 320 µM

CC(C)NCCN1C(=O)CSC1c1ccc(Cl)cc1Cl (stereo not drawn)
IC50 (uncharacterized protein (Apis mellifera, UniProt A0A7M6W5G5); enzyme activity, inhibitor, Ellman; with: 1 mM acetylthiocholine): 22 µM

CCC(=O)c1ccc(OCC(O)CN2CCN(C(c3ccccc3)c3ccccc3)CC2)cc1 (stereo not drawn)
IC50 (Lanosterol 14-alpha demethylase (ERG11, Candida albicans, UniProt P10613); enzyme activity, inhibitor, mass spectrometry): 0.489 µM

COc1ccccc1-c1n[nH]c2nc(NC3CCN(C(=O)Cc4ccc(F)cc4F)CC3)ncc12
relative abundance (bead binding, competition bead pull-down, measured: LMJF.21.1860; Leishmania donovani extract; 10 µM; reference: vehicle): 1.11
